Experimental data collected from several papers.
A part holds a random share of what one study measured. Changes are numbered by the printed parent chain.

Study 1
Target: ATF7, bZIP domain (human)
Method: DHFR protein complementation
Matrix: yeast
Setting: single substitutions, most at no-binding floor
Baseline: wild-type JUN-FOS pair
Direction: higher = stronger binding
Endpoint: binding fitness
Starting sequence: JUN, bZIP domain (human); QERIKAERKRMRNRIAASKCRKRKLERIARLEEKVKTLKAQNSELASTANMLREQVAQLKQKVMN; partner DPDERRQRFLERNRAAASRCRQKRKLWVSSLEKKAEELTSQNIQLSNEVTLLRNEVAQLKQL
L38I: -1.36 natural log
A49M: -1.25 natural log
T48S: -1.27 natural log
M51H: -1.05 natural log
T48W: -1.32 natural log
L45F: -1.41 natural log
E32R: -0.85 natural log
A49R: -0.671 natural log
E32H: -1.26 natural log
L45P: -1.51 natural log
E32Q: -1.07 natural log
Q55H: -1.05 natural log
A29M: -1.16 natural log
Q55R: -0.961 natural log
I28F: -1.21 natural log
S47Y: -1.01 natural log
K36S: -0.945 natural log
I28P: -1.28 natural log
K34G: -1.39 natural log

Study 2
Target: CCNE2, cyclin fold, Cln2 fusion (human)
Method: yeast growth competition, sequencing
Matrix: yeast
Setting: weak parent motif
Baseline: not given
Direction: higher = stronger binding
Endpoint: normalised enrichment score
Starting sequence: PKN2 docking peptide (human); VSAVQKLDFSDTM
VSAVQKLDFSSTM [D11S]: 0.144
VSAVQKLDFSDMM [T12M]: -0.511
VSAVQGLDFSDTM [K6G]: -0.166
VSAVQKLDFSDIM [T12I]: -0.177
VSAVQKLDFTDTM [S10T]: -0.147
VSANQKLDFSDTM [V4N]: -0.738
VSAVQKLDTSDTM [F9T]: -0.483
VSAVQKLDFRDTM [S10R]: 0.458
VSAVQKLDFHDTM [S10H]: 0.146
VKAVQKLDFSDTM [S2K]: 0.109
VSAVQKFDFSDTM [L7F]: 0.102
VSAVQKLDGSDTM [F9G]: 0.249
VSAVQKLDFSDTY [M13Y]: 0.37
VDAVQKLDFSDTM [S2D]: -0.665
VSAAQKLDFSDTM [V4A]: -0.128
VSAVQKLDFSDAM [T12A]: 0.161
VHAVQKLDFSDTM [S2H]: -0.0638
ESAVQKLDFSDTM [V1E]: -0.46
VSAVQKCDFSDTM [L7C]: -0.329
NSAVQKLDFSDTM [V1N]: 0.627
VSSVQKLDFSDTM [A3S]: -0.244
VSAVQKKDFSDTM [L7K]: -0.137
VSAVQHLDFSDTM [K6H]: 0.272
VSAVQKLDSSDTM [F9S]: 0.436

Study 3
Target: Interferon regulatory factor 5, full length, phosphomimetic (IRF5, Homo sapiens, UniProt Q13568-2, residues 1-514, S451D/S453D/S456D/S462D)
Method: protein-binding microarray
Molecule type: double-stranded DNA, one strand shown
Matrix: in vitro
Tested at: 940 nM top
Setting: 60-bp whole probe
Together with: salmon DNA 0.4 mg/ml
Baseline: random background probes
Direction: higher = stronger binding
Endpoint: fitted relative affinity
All sequences stand within: GCCTAGCAC … GTCTTGATTCGCTTGACGCTGCTG
CAAGTTTGCCTCCTTCAGTCAGTGCTA: 0.42 z-score
TTAGGTATCGGTTTTGGTTAGTGCTAG: 9.68 z-score
TACGGTCTCGGTATCGGGACGTGCTAG: 4.48 z-score
TTAGGACTGGACTTCCGGTTAGTGCTA: -0.0886 z-score
TCAAGTCCCTATCTCCTACTGTGCTAG: 0.907 z-score
GCACTCTTCTTTTTTTTCTTGTGCTAG: 1.09 z-score
TTAGGTATCGGGTATCGCTTAGTGCTA: 5.95 z-score
GACGATATCAGCATCGAGACGTGCTAG: -0.145 z-score
TTAGGTTTCTGTTCCGGTTAGTGCTAG: 7.27 z-score
TCAAGTCTGGGAGATGAAACTGTGCTA: -0.238 z-score
TTAGGTCTCTGTCTCGGTTAGTGCTAG: 2.85 z-score
TTAGATATCGGGTTGCGATTAGTGCTA: 0.536 z-score
TCAAGTTGGACCTCTCAGACTGTGCTA: -0.474 z-score
GACGATCTCAGACTGGAGAAGTGCTAG: -0.371 z-score
GGTTGTTTCTAATATTCTGCTGTGCTA: 1.15 z-score
GACGTTTTCGACACTGGGGACGTGCTA: 0.837 z-score
TTAGGACTGGACACTGGTTTAGTGCTA: -0.429 z-score
TTAGGTCTCCTTATCCTCTAGTGCTAG: 0.291 z-score
GACGCTTTCCTACTGCTGACGTGCTAG: 0.879 z-score

Study 4
Target: Signal transducer and activator of transcription 1-alpha/beta, full length (STAT1, Homo sapiens, UniProt P42224, residues 1-750)
Sequence of UniProt P42224 (whole entry, looked up): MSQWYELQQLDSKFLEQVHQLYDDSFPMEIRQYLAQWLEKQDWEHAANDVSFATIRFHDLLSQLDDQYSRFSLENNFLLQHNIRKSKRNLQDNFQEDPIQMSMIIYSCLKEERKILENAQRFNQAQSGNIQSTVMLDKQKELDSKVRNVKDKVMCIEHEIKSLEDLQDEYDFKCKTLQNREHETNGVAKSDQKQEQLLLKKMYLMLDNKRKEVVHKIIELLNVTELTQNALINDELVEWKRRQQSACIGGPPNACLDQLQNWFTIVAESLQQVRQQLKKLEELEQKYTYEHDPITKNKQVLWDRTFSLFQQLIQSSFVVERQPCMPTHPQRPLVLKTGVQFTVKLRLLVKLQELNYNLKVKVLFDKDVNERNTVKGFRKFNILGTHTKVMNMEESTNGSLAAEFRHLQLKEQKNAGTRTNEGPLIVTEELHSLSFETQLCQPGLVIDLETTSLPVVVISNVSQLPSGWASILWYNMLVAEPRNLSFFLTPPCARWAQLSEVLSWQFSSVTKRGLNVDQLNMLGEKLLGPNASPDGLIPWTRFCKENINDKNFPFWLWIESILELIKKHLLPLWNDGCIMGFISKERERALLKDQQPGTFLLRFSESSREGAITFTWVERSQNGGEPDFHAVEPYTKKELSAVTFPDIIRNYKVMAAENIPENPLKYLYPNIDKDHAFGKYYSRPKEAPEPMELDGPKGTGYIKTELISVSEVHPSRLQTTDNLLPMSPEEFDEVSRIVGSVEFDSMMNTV
Method: protein-binding microarray
Molecule type: hairpin DNA
Matrix: in vitro
Tested at: not given
Setting: whole hairpin DNA, median over replicate spots
Baseline: not given
Direction: higher = stronger binding
Endpoint: median fluorescence
All sequences stand within: GAGGCC … GGCCTCACACTCTTTCCCTACACG
CATCCCGGAAGCCTCCTGGCTTCCGGGATG: 1330 a.u.
TTTCCTGGAAGCCTCCTGGCTTCCAGGAAA: 5350 a.u.
TTTCCCGAAAGCCTCCTGGCTTTCGGGAAA: 1510 a.u.
TTTCCCGGAAGCCTCCTGGCTTCCGGGAAA: 16100 a.u.
GTTCCCGGAAGCCTCCTGGCTTCCGGGAAC (5mC at 36): 7070 a.u.
TTTCCCGGCTGCCTCCTGGCAGCCGGGAAA (5mC at 15): 952 a.u.
TTTCCAGGAAGCCTCCTGGCTTCCTGGAAA: 6100 a.u.
TCACCCGGAAGCCTCCTGGCTTCCGGGTGA: 918 a.u.
TTTCCCGGCCGCCTCCTGGCGGCCGGGAAA (5mC at 15): 912 a.u.
TTTCCCCGAAGCCTCCTGGCTTCGGGGAAA: 4030 a.u.
TCTCCCGGAAGCCTCCTGGCTTCCGGGAGA (5mC at 8): 7230 a.u.
TTTCCCGGCGGCCTCCTGGCCGCCGGGAAA (5mC at 27): 1950 a.u.
TCGCCCGGAAGCCTCCTGGCTTCCGGGCGA: 964 a.u.
CGTCCCGGAAGCCTCCTGGCTTCCGGGACG (5mC at 35): 1110 a.u.

Study 5
Target: Fragile X messenger ribonucleoprotein 1, C-terminal low-complexity region (Fmr1, Mus musculus, UniProt P35922)
Method: RNA Bind-n-Seq
Molecule type: RNA
Matrix: in vitro
Tested at: 200 nM
Setting: whole 134-nt RNA, ends assumed
Together with: 150 mM LiCl
Baseline: input library
Direction: higher = stronger binding
Endpoint: log2 enrichment
Each molecule: 7-deaza-guanosine replaces G
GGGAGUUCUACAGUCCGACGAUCAAGUCCUGUGCUACACAUCGUAUGUACCGAAUCGGGAGGGAAAAAGGGAAAAAGGGAAAGUAUUAUGUUACGCCGUUCGGAUCUGCACUUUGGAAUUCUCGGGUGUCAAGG: -0.111
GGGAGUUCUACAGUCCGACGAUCUGGGAGGUGGAUUUUGUUUAUUUUUUUAGCUCAUUUCCAGGGGUGGGAAUUUUUUUUUCAUAUGUGUCAUGAAUAAAGUUGUUUUUGAAAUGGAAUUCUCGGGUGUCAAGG: 0.34
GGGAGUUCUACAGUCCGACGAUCUGUGCUACACAUCGUAUGUACCGAAUCGGGGAAAAAAAGGGGAAAAAAAGGGGAAAAAAAGGGAAAGUAUUAUGUUACGCCGUUCGGAUCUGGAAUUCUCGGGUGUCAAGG: 1.14
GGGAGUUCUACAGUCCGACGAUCUCCUCAAGUCCUGUGCUACACAUCGUAUGUACCGAAUCGGGUGGGUGGGUGGAAAGUAUUAUGUUACGCCGUUCGGAUCUGCACUUCCAGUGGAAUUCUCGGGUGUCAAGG: 0.68
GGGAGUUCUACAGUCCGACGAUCCAAGUCCUGUGCUACACAUCGUAUGUACCGAAUCGGAAAAAGGUGGUUUUUUUGGAAAGUAUUAUGUUACGCCGUUCGGAUCUGCACUUCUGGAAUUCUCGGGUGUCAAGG: -1.67
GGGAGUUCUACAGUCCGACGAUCCACAGACAACACGCACCCACACAGACACAGAGGGAAGGGGUUGGGAUGGGGACAGGGUGCACAGCAGGGCGGGGUACGACCCCAGCCCCUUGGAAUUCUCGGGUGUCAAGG: 1.39
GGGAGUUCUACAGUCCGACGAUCGUCCUGUGCUACACAUCGUAUGUACCGAAUCGGGGUUUUUUUGGGGAAAGGGGAGGGGAAAGUAUUAUGUUACGCCGUUCGGAUCUGCACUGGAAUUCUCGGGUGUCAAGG: 0.13
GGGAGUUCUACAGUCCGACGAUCCAAGUCCUGUGCUACACAUCGUAUGUACCGAAUCGGGGAGGGGAGGGGUUUGGGGAAAGUAUUAUGUUACGCCGUUCGGAUCUGCACUUCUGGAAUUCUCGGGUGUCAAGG: -0.044
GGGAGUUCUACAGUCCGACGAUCUAACUUUAGAGGAGGAUCUGAUGGAUCUGGCAGUGGACGUGGAUUUGGGGAUGGCUAUAAUGGGUAUGGAGGAGGACCUGGAGGUGGCAAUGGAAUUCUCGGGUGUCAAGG: 0.0912
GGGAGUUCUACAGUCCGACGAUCGUCCUGUGCUACACAUCGUAUGUACCGAAUCGUGUGUGUGUGUGUGUGUGUGUGUGUGUAAAGUAUUAUGUUACGCCGUUCGGAUCUGCAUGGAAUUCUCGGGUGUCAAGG: -0.28
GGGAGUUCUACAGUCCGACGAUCACCAUGCAAAAGGGCAUCUUUGGGAAGUGGGGCAAGGGGGGGAUAGGGAGGGGGGUAACACUUUGGGAACAGGUGGUCCCAGGUCGUUUCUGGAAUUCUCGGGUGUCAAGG: 1.6

A few entries again (study 3):
TCAAGTCTGGGAGATGAAACTGTGCTA: -0.238 z-score
CAAGTTTGCCTCCTTCAGTCAGTGCTA: 0.42 z-score
GGTTGTTTCTAATATTCTGCTGTGCTA: 1.15 z-score
GACGTTTTCGACACTGGGGACGTGCTA: 0.837 z-score
GACGCTTTCCTACTGCTGACGTGCTAG: 0.879 z-score
TTAGGTCTCCTTATCCTCTAGTGCTAG: 0.291 z-score
TACGGTCTCGGTATCGGGACGTGCTAG: 4.48 z-score
